Measurements pooled from the literature.
Each line is one published result; not all experiments were run side by side. ± marks the error that the study gave.

CC1(C)CC([n+]2cc([NH-])on2)CC(C)(C)N1O  EC50 (human trabecular meshwork cells; cytotoxicity, CellTiter; serum-free medium; 24 h): 53.5 µM
CC[C@H](C)[C@H](NC(=O)[C@H](CCC(=O)O)NC(=O)CNC(=O)[C@@H](NC(=O)[C@H](CC(C)C)NC(=O)[C@H](CC(C)C)NC(=O)[C@H](CC(C)C)NC(=O)[C@H](CC(C)C)NC(=O)[C@H](CS)NC(=O)[C@H](CO)NC(=O)[C@H](Cc1ccccc1)NC(=O)CNC(=O)[C@H](CCCNC(=N)N)NC(=O)[C@@H]1CCCN1C(=O)[C@H](C)NC(=O)[C@H](CCSC)NC(=O)CNC(=O)CNC(=O)[C@H](Cc1ccccc1)NC(=O)[C@H](CCCCN)NC(=O)[C@H](Cc1c(C)cc(O)cc1C)NC(=O)[C@H](N)CCCNC(=N)N)[C@@H](C)O)C(=O)N[C@@H](CC(=O)O)C(=O)N[C@@H](CC(C)C)C(=O)N1CCC[C@H]1C(=O)N[C@H](C(=O)N[C@@H](CCCCN)C(=O)N[C@@H](CCCNC(=N)N)C(=O)N[C@@H](CCCNC(=N)N)C(=O)N[C@@H](C)C(N)=O)C(C)C  BBB penetration (bEnd.3 monolayer; transwell BBB model; 10 µM, 2 h, FITC-labelled; baseline: HNG): 9.54 fold
COc1ccc(Nc2c(NC3CCN(Cc4ccccc4)CC3)c(=O)c2=O)cc1  viability (SH-SY5Y; MTT; 12.5 µM, 24 h): 102 ± 1.57%
COC(=O)C1=CO[C@@H](OC(C)=O)[C@@H]2C(Cn3cc(CCBr)nn3)=CC[C@H]12  viability (SK-N-SH; MTT; 0.075 to 0.6 µM, 24 h, added: H2O2): > 78%
NCCCC[C@H](NC(=O)[C@H](Cc1ccccc1)NC(=O)[C@H](CCCCN)NC(=O)[C@H](Cc1ccccc1)NC(=O)[C@H](CCC(=O)O)NC(=O)[C@H](Cc1ccccc1)NC(=O)[C@H](CCC(=O)O)NC(=O)[C@@H](N)Cc1ccccc1)C(=O)O  intact peptide remaining (hMSC; RP-HPLC; hydrogel, serum-free medium; day 12, hydrogel 25 mg/mL, 20 mM; baseline: day 0): 8.4 ± 1.4%
N=C(N)NCCC[C@@H]1NC(=O)[C@H](CCCCNC(=O)CCOCCOCCOCCOCCNC(=O)CN2CCN(CC(=O)O)CCN(CC(=O)O)CCN(CC(=O)O)CC2)NC(=O)[C@@H](Cc2ccccc2)NC(=O)[C@H](CC(=O)O)NC(=O)CNC1=O [indium-111 labelled]  tumour to tissue ratio (athymic nude mice, female, U-87 MG glioma xenograft, tumour and lungs; intravenous, 0.5 h; baseline: tumour over lungs): 0.83 ± 0.14
O=C(CCCC[C@@H]1SC[C@@H]2NC(=O)N[C@@H]21)NCCCC[C@@H](NC(=O)[C@@H](Cc1ccccc1)NC(=O)[C@@H](Cc1ccccc1)NC(=O)Cc1ccc2ccccc2c1)C(=O)N[C@H](Cc1ccc(OP(=O)(O)O)cc1)C(=O)O  conversion (HS5; dephosphorylation, measured: D1-B; 3 h): 19.2%
CC(C)C[C@H](NC(=O)CCNc1ccc([N+](=O)[O-])c2nonc12)C(=O)N[C@@H](CC(C)C)C(=O)N[C@@H](CC(C)C)C(=O)N[C@@H](CC(C)C)C(=O)N[C@@H](Cc1ccc(OP(=O)(O)O)cc1)C(=O)O  nuclear concentration (SJSA-1; 200 µM, 4 h): 950 ± 10 µM
CCCC[C@H](NC(=O)CNC(=O)CNC(=O)c1ccc(NN)nc1)C(=O)N[C@H]1CC(=O)NCCCC[C@@H](C(N)=O)NC(=O)[C@H](Cc2c[nH]c3ccccc23)NC(=O)[C@H](CCCNC(=N)N)NC(=O)[C@@H](Cc2ccccc2)NC(=O)[C@H](Cc2c[nH]cn2)NC1=O [technetium-99m labelled]  uptake (C57 mouse, B16/F1 melanoma, blood; 2 h, added: NDP-MSH 6.07 nmol blockade): 0.24 ± 0.07 %ID/g
CC(C)=CCC[C@@](C)(O)[C@H]1CC[C@]2(C)[C@@H]1CC[C@@H]1[C@@]3(C)CCC(=O)C(C)(C)[C@@H]3CC[C@]12C  IC50 (HEK293-A; cell growth or viability, SRB): 34.1 µM
COc1cccc(CCNc2c(NC3CCN(Cc4ccccc4)CC3)c(=O)c2=O)c1  viability (SH-SY5Y; MTT; 6.25 µM, 24 h): 90.6 ± 2.06%
O=c1c2cc3ccccc3cc2[nH]c(=S)n1Cc1ccccc1  maximum non-toxic concentration (BGM; morphology and trypan blue; 72 h): 60 µg/mL
O=C(CCC(=O)OCCNC(=O)[C@@H](Cc1ccccc1)NC(=O)[C@@H](Cc1ccccc1)NC(=O)Cc1ccc2ccccc2c1)NCCS(=O)(=O)O  concentration in medium (SK-OV-3; LC-MS; culture medium; 20 µM, 4 h): 16 µM
N=C(N)NCCC[C@@H]1NC(=O)[C@H](Cc2csc3ccccc23)NC(=O)[C@@H](Cc2ccccc2)NC(=O)[C@H](Cc2ccccc2)NC(=O)[C@H](CCC(=O)NCCOCCOCC(=O)N[C@@H](CCCCNC(=O)c2ccc3c(c2)C(=O)OC32c3ccc4cc(O)ccc4c3Oc3c2ccc2cc(O)ccc32)C(N)=O)NC(=O)[C@@H](CCCNC(=N)N)NC(=O)[C@H](CCCNC(=N)N)NC(=O)[C@@H](CCCNC(=N)N)NC1=O  cytosolic entry (HeLa; cell penetration, flow cytometry; 0.5 µM, 2 h, 1% FBS; baseline: CPP12): 186 ± 7%
CN[C@](C)(C[18F])C(=O)O  tracer uptake (SK-OV-3 tumour model; host not given, blood; 30 min, tumour-bearing): 2.3 %ID/g
COc1cc(COc2ccc3c(c2)CN(C(=O)[C@H](CCC(=O)O)NC(=O)[C@H](CC(=O)O)NC(=O)[C@H](CC(=O)O)NC(=O)[C@H](CCC(=O)O)NC(=O)[C@@H](CCCNC(=N)N)NC(=O)[C@@H](CCCNC(=N)N)NC(=O)[C@@H](CCCNC(=N)N)NC(=O)[C@H](C)N(C)C(=O)[C@H](Cc2ccccc2)NC(=O)[C@@H](NC(=O)[C@H](Cc2ccccc2)NC(=O)[C@H](C)NC(=O)[C@H](CCCNC(=N)N)N(C)C(=O)[C@@H]2CCCN2C(=O)[C@H](CCCNC(=N)N)NC(=O)CNC(=O)c2ccc4c(c2)C2(OC4=O)c4ccc(O)cc4Oc4cc(O)ccc42)[C@@H](C)OCc2cc(OC)c(OC)cc2[N+](=O)[O-])[C@H](C(=O)N[C@@H](CCC(=O)O)C(=O)N[C@@H](CCC(=O)O)C(=O)N[C@H](C(N)=O)C(C)C)C3)c([N+](=O)[O-])cc1OC  reporter degradation (A-431; 30 min, 37 °C): 0%
CC1C(=NOCc2cc(-c3ccc(Cl)cc3)no2)C(C)C(c2ccc(Cl)cc2)OC1c1ccc(Cl)cc1 (stereo not shown)  IC50 (human PBMC; cytotoxicity, MTT): 476 µg/mL
N=C(N)NCCC[C@@H]1NC(=O)[C@H](CCCCNC(=O)CNC(=O)CNC(=O)CNC(=O)CC[C@H](NC(=O)CCOCCOCCOCCOCCNC(=O)CC[C@H](NC(=O)CN2CCN(CC(=O)O)CCN(CC(=O)O)CCN(CC(=O)O)CC2)C(=O)NCCOCCOCCOCCOCCC(=O)N[C@@H](CCC(=O)NCC(=O)NCC(=O)NCC(=O)NCCCC[C@@H]2NC(=O)[C@@H](Cc3ccccc3)NC(=O)[C@H](CC(=O)O)NC(=O)CNC(=O)[C@H](CCCNC(=N)N)NC2=O)C(=O)NCC(=O)NCC(=O)NCC(=O)NCCCC[C@@H]2NC(=O)[C@@H](Cc3ccccc3)NC(=O)[C@H](CC(=O)O)NC(=O)CNC(=O)[C@H](CCCNC(=N)N)NC2=O)C(=O)NCC(=O)NCC(=O)NCC(=O)NCCCC[C@@H]2NC(=O)[C@@H](Cc3ccccc3)NC(=O)[C@H](CC(=O)O)NC(=O)CNC(=O)[C@H](CCCNC(=N)N)NC2=O)NC(=O)[C@@H](Cc2ccccc2)NC(=O)[C@H](CC(=O)O)NC(=O)CNC1=O [indium-111 labelled]  tumour to tissue ratio (athymic nude mice, female, U-87 MG glioma xenograft, tumour and liver; intravenous, 72 h; baseline: tumour over liver): 10.7 ± 1.45
CCCCCCCCC(=O)NCc1ccc(O)c(OC)c1  IC50 (mouse mAb 1-D6; antibody binding, indirect competitive ELISA; added: coating antigen 2-OVA): 1.78 µg/mL
CC(C)C[C@H](NC(=O)[C@H](CCCCN)NC(=O)[C@H](CC(C)C)NC(=O)[C@H](CC(C)C)NC(=O)[C@H](CCCCN)NC(=O)[C@H](CCCCN)NC(=O)[C@H](CC(C)C)NC(=O)[C@H](CC(C)C)NC(=O)[C@H](CCCCN)NC(=O)[C@H](CC(C)C)NC(=O)[C@H](CC(C)C)NC(=O)[C@H](CCCCN)NC(=O)[C@H](CCCCN)NC(=O)[C@H](CC(C)C)NC(=O)[C@@H](N)CSSC[C@H](N)C(=O)N[C@@H](CC(C)C)C(=O)N[C@@H](CCC(=O)O)C(=O)N[C@@H](Cc1c[nH]cn1)C(=O)N[C@@H](CC(C)C)C(=O)N[C@@H](CC(C)C)C(=O)N[C@@H](CCC(=O)O)C(=O)N[C@@H](Cc1c[nH]cn1)C(=O)N[C@@H](CC(C)C)C(=O)N[C@@H](CCC(=O)O)C(=O)N[C@@H](Cc1c[nH]cn1)C(=O)N[C@@H](CC(C)C)C(=O)N[C@@H](CC(C)C)C(=O)N[C@@H](CCC(=O)O)C(=O)N[C@@H](Cc1c[nH]cn1)C(N)=O)C(N)=O  hemolysis (mouse erythrocytes; 200 µM, 1 h, 37 °C; baseline: Triton X-100): ~13.8%
CC(=O)N[C@@H](Cc1c[nH]cn1)C(=O)N[C@@H](CCCNC(=N)N)C(=O)N[C@@H](CCCNC(=N)N)C(=O)N[C@@H](CCCNC(=N)N)C(=O)N[C@@H](CCCNC(=N)N)C(=O)N[C@@H](CCCNC(=N)N)C(=O)N[C@@H](CCCNC(=N)N)C(=O)N[C@@H](CCCNC(=N)N)C(=O)N[C@@H](CCCNC(=N)N)C(=O)N[C@@H](Cc1c[nH]cn1)C(N)=O  hemolysis (mouse erythrocytes; up to 250 µM): ~100%
Cc1c(C)c(C)[c-](C)c1C.Fc1c[c-]c(-c2ccccn2)cc1.[Cl-].[Ir+3]  iridium share in fraction (A2780; ICP-MS, measured: iridium in cytoskeletal fraction; IC50): 9.8%
O=C(O)CCC(NP(=O)(O)OCCC[C@@H](NC(=O)CCC(NC(=O)CCCCCNC(=O)CCCCCNC(=O)c1ccc([18F])cc1)C(=O)O)C(=O)O)C(=O)O (stereo partly shown)  tracer uptake (PC-3 tumour model; host not given, blood; intravenous, 2 h, tumour-bearing): 0.02 %ID/g
COc1ccc(CNc2c(NC3CCN(Cc4ccccc4)CC3)c(=O)c2=O)cc1OC  viability (SH-SY5Y; MTT; 6.25 µM, 24 h): 105.6 ± 0.67%
CCn1c(=S)[nH]c2cc3ccccc3cc2c1=O  maximum non-toxic concentration (BGM; morphology and trypan blue; 72 h): 60 µg/mL
Nc1ccc(CCNc2c(NC3CCN(Cc4ccccc4)CC3)c(=O)c2=O)cc1  viability (SH-SY5Y; MTT; 12.5 µM, 24 h): 96.36 ± 0.14%
COc1cc(C(=O)NCCOCCOCCOCCNC(=O)c2ccc([18F])nc2)ccc1NC(=O)C1NC(CC(C)(C)C)C(C#N)(c2ccc(Cl)cc2F)C1c1cccc(Cl)c1F (stereo not shown)  tracer uptake (SJSA-1 tumour model; host not given, liver; 2 h, tumour-bearing): 0.99 %ID/g
Cc1ccc(CCNc2c(NC3CCN(Cc4ccccc4)CC3)c(=O)c2=O)cc1  viability (SH-SY5Y; MTT; 12.5 µM, 24 h): 101 ± 2.64%
CN(C)c1ccc2c(c1)Oc1cc(N(C)C)ccc1C21OC(=O)c2cc(C(=O)NCC(=O)N[C@H](CCCNC(=N)N)C(=O)N[C@H](CCCCN)C(=O)N[C@H](CCCCN)C(=O)N[C@H](CCCNC(=N)N)C(=O)N[C@H](CCCNC(=N)N)C(=O)N[C@H](CCC(N)=O)C(=O)N[C@H](CCCNC(=N)N)C(=O)N[C@H](CCCNC(=N)N)C(=O)N[C@H](CCCNC(=N)N)C(=O)O)ccc21  uptake reduction (BHK-21; 10 µM, 60 min, 4 °C, TAMRA-labelled; baseline: 37 °C): ~12%
CCn1c(SCc2ccc(Cl)cc2)nc2cc3ccccc3cc2c1=O  maximum non-toxic concentration (BGM; morphology and trypan blue; 72 h): 60 µg/mL
C[C@@H](O)[C@H](NC(=O)[C@@H]1CCCN1C(=O)CNC(=O)[C@@H]1CC(=O)NCC(=O)N[C@H]2Cc3cn(c4ccccc34)-c3cc(ccc3O)C[C@H](NC2=O)C(=O)NCC(=O)N[C@@H](CO)C(=O)N[C@@H](CCC(N)=O)C(=O)N[C@@H](Cc2c[nH]c3ccccc23)C(=O)N1)C(=O)NCC(=O)N[C@@H](CCC(N)=O)C(=O)N[C@@H](CCCNC(=N)N)C(=O)N[C@@H](CC(=O)O)C(=O)O  activity (NCI60 panel; cell growth; concentration not given, single high dose): inactive

Excerpt of the above:
O=c1c2cc3ccccc3cc2[nH]c(=S)n1Cc1ccccc1  maximum non-toxic concentration (BGM; morphology and trypan blue; 72 h): 60 µg/mL
O=C(CCCC[C@@H]1SC[C@@H]2NC(=O)N[C@@H]21)NCCCC[C@@H](NC(=O)[C@@H](Cc1ccccc1)NC(=O)[C@@H](Cc1ccccc1)NC(=O)Cc1ccc2ccccc2c1)C(=O)N[C@H](Cc1ccc(OP(=O)(O)O)cc1)C(=O)O  conversion (HS5; dephosphorylation, measured: D1-B; 3 h): 19.2%
CCn1c(=S)[nH]c2cc3ccccc3cc2c1=O  maximum non-toxic concentration (BGM; morphology and trypan blue; 72 h): 60 µg/mL
